Measured values from different studies.
Each numbered part is a random draw from the data of one study; scales do not carry over between parts. Changes are numbered by the printed parent chain.

Block 1 — target: CCNA1, cyclin fold, Cln2 fusion (human); method: yeast growth competition, sequencing; sample: yeast; notes: weak parent motif; baseline: not given; reading: higher = stronger binding
Parent: MASTL docking peptide (human); PMIAKNLMCELDE
Change	normalised enrichment score
PMIAKNLMCNLDE [E10N]	0.152
PMIAKNLMCENDE [L11N]	-0.117
PMIAENLMCELDE [K5E]	-0.0141
PMIAKALMCELDE [N6A]	-0.222
PMIAKNLMFELDE [C9F]	0.76
PMIAKNMMCELDE [L7M]	-0.468
PMIAKNLMCEFDE [L11F]	-0.33
PMSAKNLMCELDE [I3S]	-0.219
PMIAKNLMCEEDE [L11E]	0.131
PMIAKNVMCELDE [L7V]	-0.247
PMIAKNLMIELDE [C9I]	-0.175
PMIAKNLMCELSE [D12S]	0.169
PMIAKNYMCELDE [L7Y]	0.223
PQIAKNLMCELDE [M2Q]	0.426

Block 2 — method: RNA Bind-n-Seq; form: RNA; sample: in vitro; concentration: not given; baseline: input RNA pool; reading: higher = stronger binding
Target: RING finger protein unkempt homolog, zinc fingers 1-6, GST-SBP tag (UNK, Homo sapiens, UniProt Q9C0B0, residues 30-357)
Chain of UniProt Q9C0B0 (30-357, looked up): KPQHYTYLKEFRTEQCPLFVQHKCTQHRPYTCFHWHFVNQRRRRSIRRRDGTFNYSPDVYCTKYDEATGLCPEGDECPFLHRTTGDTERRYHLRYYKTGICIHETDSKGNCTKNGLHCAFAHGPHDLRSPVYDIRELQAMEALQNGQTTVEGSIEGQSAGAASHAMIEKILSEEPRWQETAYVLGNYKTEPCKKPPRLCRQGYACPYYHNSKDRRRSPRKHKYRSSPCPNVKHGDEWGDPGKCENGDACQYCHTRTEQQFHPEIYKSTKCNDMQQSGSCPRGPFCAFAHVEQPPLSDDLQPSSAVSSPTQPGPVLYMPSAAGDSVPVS
Notes: RNA with constant flanks, human and mouse sites, ends assumed
Oligonucleotide	bound/input enrichment [ratio]
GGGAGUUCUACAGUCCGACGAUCAAGCAGAUACAGAUGGCUGCCUGCUGCUCGGCUUUGCUUUUGCUUUUCCCACCGUGUUUUCAUCUUUGUUCACUUGAGGCUUUCCCCAGCUGGUGUGUGCAGGACAGUUCAUGGUAAUGUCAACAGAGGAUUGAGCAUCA	0.196
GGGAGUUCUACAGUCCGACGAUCGGAGGUUCGGGGCGCGGCGUAGCGUGCGGGGCGGAGGCCCUGACCGAUUCACAAUGACAUCCUUUCAAGAAGUCCAAUUGCAGACUUCCAAUUUUGCCCAUGUCAUCUUUCAAAAUGUGGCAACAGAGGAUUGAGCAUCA	0.15
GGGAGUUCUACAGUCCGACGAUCUUCACCCCUGAUGGGAACCACUUCCUCUACUCUAGCUGGUCUGAUUACAUUCAUAUCUGCAAUAUCUAUGGUGAGGGAGAUACACACACUGCCCUGGAUCUCAGGCCAGAUGAGCGUCGCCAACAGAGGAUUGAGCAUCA	0.141
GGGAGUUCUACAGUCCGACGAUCAACUCAGGAACUAUGGCAAGGAACUUUCCCCAGAUCAAAUUCUAUUAACGCUGAGAUACAAGUCAUCCAUGCACAGCCACUAUCAUACCCUUUAUUCUCACUGAAAGGCAGAACUCAGAACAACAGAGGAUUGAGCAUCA	0.257
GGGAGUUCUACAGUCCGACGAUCGUGGUGAACCGACCUCCAACUCCUCCCCCACCGUACAGUGCCUUCCAGCUCCAACAGCAGCAGCAGCUGCUGCCACCUCCUCCUCAGGGUGGCCCUCCAGGUGGCAGCCCCCCAGGCGCUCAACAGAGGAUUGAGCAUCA	0.759
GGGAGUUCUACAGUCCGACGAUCUCCCUCGCCUGUGGUAAACCAACACAGCGGGUUCUUACAAAAGAACCCAAAUCAAAGGAAAUAGAAAAUGGUCAUAUAUUUACAGUUAAUGAUCAAUUCACAUCCAAACUACACAGAGUCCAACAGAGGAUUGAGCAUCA	0.246
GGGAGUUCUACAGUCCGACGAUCGUUUGGCUAAAGCCAAAGAACAGCUUUUCAUAGCCACAUUUUGUAAUUCUUGAUAAGUGAUAGCUUACCAAGCUGUCUUCAUUAAAAACAAAUUUGUCCUUAGCCCUACUUUUUCUCAAACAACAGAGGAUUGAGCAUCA	0.489
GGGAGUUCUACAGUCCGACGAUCUUAUGGGGGAAGGGGGGGGUUCUUUAAAAUUUCUGUGGUUUGUGGCUUUUUCUUCCAUACAUUAGUUCCCACCAUCGCAUGCCCAGGGACCACUGCCUGGCAUUAUCGCAUGCUGGGAUCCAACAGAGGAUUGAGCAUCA	0.758

Block 3 — method: DHFR PCA, deep sequencing; sample: yeast; with: (+)-ABA 2500 µM; baseline: wild-type fitted maximum; reading: higher = stronger binding
Target: ABI1, truncated, D143A, DHFR fusion (Arabidopsis thaliana)
Notes: methotrexate growth selection, single substitutions
Parent: PYL1, truncated, DHFR fusion (Arabidopsis thaliana); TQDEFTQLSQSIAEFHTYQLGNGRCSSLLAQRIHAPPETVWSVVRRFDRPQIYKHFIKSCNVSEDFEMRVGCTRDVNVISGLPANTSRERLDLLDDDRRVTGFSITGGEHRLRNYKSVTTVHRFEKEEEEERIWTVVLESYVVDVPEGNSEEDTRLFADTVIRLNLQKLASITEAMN
Change	relative binding score
A35K	74%
S59D	98.5%
V121P	-11.5%
L138C	95.5%
E130L	103%
T173V	95.1%
R46I	91.6%
Q7M	110%
H55E	91.5%
V145P	81.7%
E67V	97.5%
K126I	104%
E152P	86.9%
G148K	87.5%
P146I	57.6%
F103M	102%
E14G	88.8%

Block 4 — method: protein-binding microarray; form: double-stranded DNA, one strand shown; sample: in vitro; concentration: 2540 nM top; notes: 60-bp whole probe; with: salmon DNA 0.4 mg/ml; baseline: random background probes; reading: higher = stronger binding; constant ends, left off below: GCCTAGCAC … GTCTTGATTCGCTTGACGCTGCTG
Target: Interferon regulatory factor 3, full length, phosphomimetic (IRF3, Homo sapiens, UniProt Q14653, residues 1-427, S386D/S396D/S398D/S402D/T404D/S405D)
Chain of UniProt Q14653 (whole entry, unmodified, looked up): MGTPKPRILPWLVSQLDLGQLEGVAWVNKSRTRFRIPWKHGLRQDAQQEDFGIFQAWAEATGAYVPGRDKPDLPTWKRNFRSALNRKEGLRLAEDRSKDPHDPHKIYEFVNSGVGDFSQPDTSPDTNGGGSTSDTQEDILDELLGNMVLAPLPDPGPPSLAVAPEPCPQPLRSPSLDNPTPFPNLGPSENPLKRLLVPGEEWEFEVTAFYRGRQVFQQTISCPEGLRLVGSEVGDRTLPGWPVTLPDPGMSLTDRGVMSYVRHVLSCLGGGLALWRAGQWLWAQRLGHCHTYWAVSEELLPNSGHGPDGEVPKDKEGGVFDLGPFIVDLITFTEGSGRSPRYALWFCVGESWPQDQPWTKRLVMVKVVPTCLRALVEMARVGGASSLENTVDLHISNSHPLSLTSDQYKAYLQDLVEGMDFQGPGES
Oligonucleotide	fitted relative affinity
TCAGGACTGACTCTTCAGACTGTGCTA	-0.39 z-score
TCAATCTTCACTCTTAATTAGTGCTAG	0.943 z-score
TTAGGACTGCTTCTCCTATAGTGCTAG	-0.133 z-score
TTAGAACTGCGTTTCGATTAGTGCTAG	1.83 z-score
GACGGTTCCCTTTTCTTGACGTGCTAG	5.93 z-score
TTCGGACTGGGGTTTCGGTTAGTGCTA	2.36 z-score
TCAGCATTGCTTCTATAACTGTGCTAG	-0.29 z-score
GGCGGTTTCGGTATCGGGACGTGCTAG	8.16 z-score
TCGGTGATCAGTCTGATGGTGTGCTAG	-0.658 z-score
GACGGTTTCCATTTCCTGACGTGCTAG	8.33 z-score
CAGAAGTTCATGTTCAACCAGTGCTAG	-0.0955 z-score

Block 5 — method: universal PBM; form: double-stranded DNA, one strand shown; sample: in vitro; concentration: 600 nM; reading: higher = stronger binding
Target: Sal-like protein 4, full length isoform A (SALL4, Homo sapiens, UniProt Q9UJQ4, residues 1-1053)
Chain of UniProt Q9UJQ4 (whole entry, looked up): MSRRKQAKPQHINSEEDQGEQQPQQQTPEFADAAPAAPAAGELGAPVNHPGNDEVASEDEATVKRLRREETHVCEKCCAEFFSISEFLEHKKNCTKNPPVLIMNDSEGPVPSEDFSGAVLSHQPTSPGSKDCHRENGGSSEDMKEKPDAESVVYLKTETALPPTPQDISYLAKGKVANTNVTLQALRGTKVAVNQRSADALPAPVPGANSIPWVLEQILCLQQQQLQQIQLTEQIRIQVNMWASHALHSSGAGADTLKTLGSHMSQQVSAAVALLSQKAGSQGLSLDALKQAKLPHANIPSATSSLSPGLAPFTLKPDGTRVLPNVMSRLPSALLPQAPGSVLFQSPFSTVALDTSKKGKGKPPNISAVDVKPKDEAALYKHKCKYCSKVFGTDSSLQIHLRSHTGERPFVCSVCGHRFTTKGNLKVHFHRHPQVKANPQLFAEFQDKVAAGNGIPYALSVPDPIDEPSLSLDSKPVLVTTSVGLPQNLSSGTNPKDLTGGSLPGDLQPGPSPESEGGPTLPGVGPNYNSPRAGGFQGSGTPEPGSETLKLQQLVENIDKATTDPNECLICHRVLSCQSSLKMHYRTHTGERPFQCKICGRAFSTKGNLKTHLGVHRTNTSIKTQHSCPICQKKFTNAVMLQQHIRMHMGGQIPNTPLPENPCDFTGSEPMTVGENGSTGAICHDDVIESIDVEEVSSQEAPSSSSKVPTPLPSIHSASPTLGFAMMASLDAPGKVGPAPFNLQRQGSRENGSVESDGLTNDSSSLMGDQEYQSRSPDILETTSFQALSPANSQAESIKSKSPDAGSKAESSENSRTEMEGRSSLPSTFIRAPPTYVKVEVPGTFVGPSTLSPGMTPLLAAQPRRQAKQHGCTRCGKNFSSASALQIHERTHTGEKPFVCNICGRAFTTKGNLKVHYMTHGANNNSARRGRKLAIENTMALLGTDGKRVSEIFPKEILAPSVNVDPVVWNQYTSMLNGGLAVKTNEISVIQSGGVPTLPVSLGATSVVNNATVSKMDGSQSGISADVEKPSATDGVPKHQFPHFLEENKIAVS
Notes: 8-mer, flanks averaged, mean of replicates
Oligonucleotide	E-score
AGTTGTAG	0.104
ACGCCATC	-0.213
CACACTCC	-0.116
ATGCGCTC	-0.0182
GAAAGACC	-0.19
CTCCAATC	-0.198
AGTTGAAC	-0.0504
CGCGGCTA	-0.278
GTAAGCAC	-0.054
AGGGCCAG	-0.287
GGAGATTA	0.0969
ATCACTTC	0.0442
CTTATACA	0.249
AAGTCAGA	-0.0512
CGAGGCGC	-0.266
AGATCACG	-0.0796
TGCCGTAA	-0.0242
ACAGAACG	-0.11
ATCGACGC	-0.0632
ACCTGAGA	-4e-05
GGGCAGCA	-0.347
GAGTTTGA	0.0262
CCCCTTCG	-0.31
AATTCCCA	0.175
CCGTTGAG	-0.161

Some of these lines once more (block 3):
Change	relative binding score
R46I	91.6%
V121P	-11.5%
E67V	97.5%
A35K	74%
L138C	95.5%
